Published values from different studies.
Compare with care: the assays were run in different laboratories. Values joined by “and” are separate records of one study, mostly repeats; a detail may differ. ± gives the spread as reported.
ACTA1 pyrene-labeled: Actin, alpha skeletal muscle, pyrene-labeled (ACTA1, Oryctolagus cuniculus, UniProt P68135)
gag-pol reverse transcriptase: Gag-Pol polyprotein, reverse transcriptase (gag-pol, Human immunodeficiency virus 1, UniProt P03366)
Voltage-dependent P/Q-type calcium channel subunit alpha-1A: Voltage-dependent P/Q-type calcium channel subunit alpha-1A (Homo sapiens, UniProt O00555)

Compound = CCN1C(=O)SC[C@H]1[C@@]1(O)C[C@H]2C[C@@H](CC[C@H](C)/C=C\C=C\CC/C(C)=C\C(=O)O2)O1; target = ACTA1 pyrene-labeled; assay = actin polymerization, pyrene actin; conditions = 1 µM; how to read = baseline: vehicle; inhibition = 70%
Compound = CN1CCN(c2cc(-c3ccncc3)c(-c3ccc4ccccc4c3)nn2)CC1; target = CCR2 (Homo sapiens, UniProt P41597); conditions = 10 µM; inhibition = 12.2%
Compound = O=C1CSC(c2c(Cl)cccc2Cl)N1c1nc(-c2ccc(S(=O)(=O)N3CCCC3)cc2)cs1 (stereo not drawn); target = gag-pol reverse transcriptase; conditions = 4 µM; inhibition = 14.7%
Compound = CC[C@H](C)[C@H](NC(=O)[C@@H](NC(=O)[C@H](N)Cc1ccccc1)C(C)C)C(=O)N[C@@H](C)C(N)=O; target = APP (Homo sapiens, UniProt P05067); assay = amyloid-beta aggregation, thioflavin T fluorescence; conditions = 2.0 µM, 96 h, with: 2 µM amyloid-beta; inhibition = 94%
Compound = COCc1c(-c2cc3cc(C)cc(OC)c3s2)c2c(N)ncnn2c1CN1CCNC(=O)C1; target = ATP1A1 (Sus scrofa, UniProt P05024); assay = enzyme activity; test system = pig enzyme; conditions = 10 µM; inhibition = 5%
Compound = O=C1CSC(c2cccc(F)c2)N1c1cccc(S(=O)(=O)Nc2nccs2)c1 (stereo not drawn); target = gag-pol reverse transcriptase; conditions = 4 µM; inhibition = 46.1%
Compound = COc1ccc(N2C(=O)N(c3c(C)cccc3Cl)Cc3cnc(Nc4ccc(C5CCN(C)CC5)cc4OC)nc32)nc1; target = EPHA1 (Homo sapiens, UniProt P21709); assay = kinase activity; conditions = 0.5 µM; inhibition = 98%
Compound = O=C1CSC(c2cccc(Cl)c2)N1c1nc(-c2ccc(S(=O)(=O)N3CCCC3)cc2)cs1 (stereo not drawn); target = gag-pol reverse transcriptase; conditions = 4 µM; inhibition = 94.4%
Compound = C#Cc1n[nH]c2c(-c3cn([C@@H](C)c4ccccc4)c(=O)[nH]c3=O)cc(F)cc12; target = Phosphatidylinositol 4,5-bisphosphate 3-kinase catalytic subunit delta isoform, with p85 alpha (PIK3CD, Homo sapiens, UniProt O00329); assay = kinase activity, inhibitor; conditions = 100 nM; inhibition = -0.9%
Compound = O=C(Nc1cccnn1)N1CCC(=Cc2cccc(Oc3ccc(C(F)(F)F)cn3)c2)CC1; target = Vitamin D3 receptor (VDR, Homo sapiens, UniProt P11473); assay = radioligand binding, inhibitor; conditions = 50 µM, human, with: [3H]1alpha,25-dihydroxyvitamin D3; inhibition = -6%
Compound = O=C1CSC(c2cccc(Br)c2)N1c1cccc(S(=O)(=O)Nc2nccs2)c1 (stereo not drawn); target = gag-pol reverse transcriptase; conditions = 4 µM; inhibition = 45.3%
Compound = CN(CCN1CCC(OC(=O)Nc2ccccc2-c2ccccc2)CC1)C(=O)c1ccc(CN2CCC(C(N)=O)CC2)cc1; target = rat TRH receptor; assay = radioligand binding; conditions = 1 µM, with: [3H]Me-TRH 2.0 nM; inhibition = -20%
Compound = O=c1ccc2ccccc2o1; target = Htr1b (Rattus norvegicus, UniProt P28564); assay = radioligand binding, antagonist; conditions = 10 µM; inhibition = 11.9%
Compound = Clc1cccc(-c2c[nH]c3nccc(N4CCOCC4)c23)c1; target = STK3 (Homo sapiens, UniProt Q13188); assay = kinase activity, inhibitor, PhosphoSens kinetic; conditions = concentration not given, 2 h, with: ATP at Km; inhibition = inhibited
Compound = Cn1cc(-c2cccc(N3CCc4c(sc5c4CC(C)(C)C5)C3=O)c2CO)cc(Nc2ccncn2)c1=O; target = Proto-oncogene tyrosine-protein kinase Src, N1 isoform (SRC, Homo sapiens, UniProt P12931); assay = kinase activity, inhibitor, SelectScreen kinase profiling; conditions = 1 µM, with: ATP at apparent Km; inhibition = 21%
Compound = Nc1ccncc1; target = Voltage-dependent P/Q-type calcium channel subunit alpha-1A; assay = antagonist; conditions = 10 µM; inhibition = 21%
Compound = O=C(Nc1cccnn1)N1CCN([C@@H]2CCOc3cc(C(F)(F)F)ccc32)CC1; target = 5-hydroxytryptamine receptor 4, isoform 5-HT4e (HTR4, Homo sapiens, UniProt Q13639); assay = Cerep BioPrint; conditions = 20 µM, human 5-HT4e; inhibition = 10%
Compound = c1ccc(C(NCCNC(c2ccccc2)c2ccccc2)c2ccccc2)cc1; target = GABBR1 (Homo sapiens, UniProt Q9UBS5); assay = activity; conditions = 10 µM, Eurofins selectivity panel; inhibition = -8%
Compound = CC(C)N1CCC[C@H]1CNC(=O)c1cn(C2CCCC2)c(=O)c2c1c1ccccc1n2C; target = KATP potassium channel (human); assay = radioligand binding; conditions = 10 µM; inhibition = 5%
Compound = COc1cc(Nc2ncc(F)c(Nc3ccc4c(n3)NC(=O)C(C)(C)O4)n2)cc(OC)c1OC; target = RAF1 (Homo sapiens, UniProt P04049); assay = KINOMEscan; conditions = 10 µM; inhibition = 69%
Compound = O=C(Nc1cnccc1Cl)N1CCN(Cc2ccc3c(c2)OC(F)(F)O3)CC1; target = ADRB3 (Homo sapiens, UniProt P13945); assay = radioligand binding; conditions = concentration not given; inhibition = 9% and 3%
Compound = CC(C)[C@@H](O)CC[C@@H](C)[C@H]1CC[C@H]2[C@@H]3CC=C4C[C@@H](O)CC[C@]4(C)[C@H]3CC[C@]12C; target = Glutamate NMDA receptor; GRIN1/GRIN2A (Homo sapiens, UniProt Q05586+Q12879); assay = proton inhibition of current, two-electrode voltage clamp; test system = Xenopus oocytes; conditions = concentration not given, current ratio pH 6.8 over pH 7.6, with: positive allosteric modulator 10 µM; inhibition = 52 ± 1.7%
Compound = N.N.O=C([O-])C1(C(=O)[O-])CCC1.[Pt+2]; target = Voltage-dependent P/Q-type calcium channel subunit alpha-1A; assay = antagonist; conditions = 10 µM; inhibition = 10%
Compound = NC(=O)CC[C@H](NC(=O)[C@@H]1CCCN1C(=O)[C@H](CCC(N)=O)NC(=O)[C@@H]1CCCN1C(=O)[C@@H](N)Cc1ccc(O)cc1)C(=O)O; target = DPP4 (Homo sapiens, UniProt P27487); assay = inhibitor; conditions = 100 µM, 20 min, pH 8.0, 37 °C, with: Gly-Pro-pNA 500 µM; inhibition = 89.5%
Compound = C/C1=C/C(=O)O[C@@H]2C[C@@H](CC[C@H](C)/C=C\C=C\CC1)O[C@@](O)([C@@H]1CSC(=O)N1CO)C2; target = ACTA1 pyrene-labeled; assay = actin polymerization, pyrene actin; conditions = 0.1 µM; how to read = baseline: vehicle; inhibition = 35%
Compound = NC/C(=C\F)COc1cccc(Cn2c(=S)[nH]c(=O)c3[nH]cnc32)c1; target = rat NMDA receptor; assay = radioligand binding; conditions = 10 µM, phencyclidine site; inhibition = < 50%
Compound = COC1(C2CSC(=O)N2)CC2CC(CCC(C)C=CC=CCCC(C)=CC(=O)O2)O1 (stereo not drawn); target = ACTA1 pyrene-labeled; assay = actin polymerization, pyrene actin; conditions = 0.1 µM; how to read = baseline: vehicle; inhibition = 6%
Compound = C#Cc1n[nH]c2c(-c3cn([C@@H](C)c4ccccn4)c(=O)[nH]c3=O)cc(F)cc12; target = Phosphatidylinositol 4,5-bisphosphate 3-kinase catalytic subunit alpha isoform, with p85 alpha (PIK3CA, Homo sapiens, UniProt P42336); assay = kinase activity, inhibitor; conditions = 100 nM; inhibition = -6.2%
Compound = CN(C(=O)n1cnc(-c2ccc[n+]([O-])c2)c1)C1CCCCC1; target = ESR2 (Homo sapiens, UniProt Q92731); assay = radioligand binding; conditions = 10 µM, with: [3H]estradiol; inhibition = -1%
Compound = CO[C@]1([C@@H]2CSC(=O)N2C2CCCC2)C[C@H]2C[C@@H](CC[C@H](C)/C=C\C=C\CC/C(C)=C\C(=O)O2)O1; target = ACTA1 pyrene-labeled; assay = actin polymerization, pyrene actin; conditions = 1 µM; how to read = baseline: vehicle; inhibition = 49%
Compound = O=C1CSC(c2ccc(F)cc2)N1c1nc(-c2ccc(S(=O)(=O)N3CCOCC3)cc2)cs1 (stereo not drawn); target = gag-pol reverse transcriptase; conditions = 4 µM; inhibition = 12%
Compound = O=C1O[C@H]2[C@@H]3OC(=O)c4cc(O)c(O)c(O)c4-c4c(O)c(O)c5oc(=O)c6c(c(O)c(O)c7oc(=O)c4c5c76)-c4c(cc(O)c(O)c4O)C(=O)OC[C@H]3OC(O)[C@@H]2OC(=O)c2cc(O)c(O)c(O)c2-c2c1cc(O)c(O)c2O (mixture of isomers); target = PDIA3 (Homo sapiens, UniProt P30101); assay = di-eosin-GSSG reductase activity; conditions = 20 µM, 15 min; inhibition = inhibited
Compound = Cc1ncc(C)n2nc(/C=C/c3nc(N4CCCC4)cc(N4CCOCC4)n3)nc12; target = CHRNA1/CHRNB1/CHRND (Homo sapiens, UniProt P02708+P11230+Q07001); assay = radioligand binding; conditions = 10 µM; inhibition = 25%
Compound = FC(F)(F)c1cccc(Nc2nc(NCCOc3ccccc3)nc3[nH]cnc23)c1; target = PRKCB (Homo sapiens, UniProt P05771); assay = Z′-LYTE kinase; conditions = 5 µM; inhibition = -2% and 15%
Compound = COC(C(=O)N1C(=O)SCC1C1(OC)CC2CC(CCC(C)C=CC=CCCC(C)=CC(=O)O2)O1)c1ccccc1 (stereo not drawn); target = ACTA1 pyrene-labeled; assay = actin polymerization, pyrene actin; conditions = 0.1 µM; how to read = baseline: vehicle; inhibition = 0%
Compound = O=C1CSC(c2cccc(F)c2)N1c1nc(-c2ccc(S(=O)(=O)N3CCOCC3)cc2)cs1 (stereo not drawn); target = gag-pol reverse transcriptase; conditions = 4 µM; inhibition = 3.7%
